Published values gathered from unrelated publications.
Lines come from different studies, so protocols differ. Several values in a cell are separate wells, animals, samples, runs or records. Numbers after ± are the reported error. In brackets after ≈: the same amount, converted by molar mass.

Structure (SMILES)	target or system	test	test system	setting	measurement	result
NCCO.O=C(O)C(Cl)Cl	Chenopodium album	herbicidal activity		15 mg/mL, 21 days, pre-emergence greenhouse	inhibition	0%
Cc1cc(C(=O)Nc2nc3cccc(C)c3n2[C@H]2CCCCN(C(=O)/C=C/CN(C)C)C2)ccn1	Trypanosoma brucei	propidium iodide flow cytometry, refers to: Multi phase	bloodstream parental line	concentration not given	cell cycle distribution	18.6% and 18.7% and 20.9%
CC[C@H](C)[C@@H]1NC(=O)[C@H](CO)NC(=O)[C@H](CCCCN)NC(=O)[C@@H]2CSSC[C@@H](C(=O)N[C@@H](Cc3ccc(O)cc3)C(N)=O)NC(=O)[C@H](CCCCN)NC(=O)[C@@H]3CSSC[C@H](NC(=O)[C@H](CCCNC(=N)N)NC(=O)[C@H](CC(C)C)NC(=O)[C@H](CC(=O)O)NC(=O)[C@H](CC(=O)O)NC(=O)[C@H](CCC(=O)O)NC(=O)[C@H](CC(N)=O)NC(=O)[C@H](Cc4c[nH]c5ccccc45)NC(=O)C(C)(CC)NC(=O)CNC(=O)[C@H](CC(N)=O)NC(=O)[C@@H](NC(=O)CNC(=O)[C@H](Cc4ccccc4)NC(=O)CN)CSSC[C@H](NC(=O)[C@H](Cc4ccc(O)cc4)NC(=O)CNC(=O)CNC(=O)[C@H](CCCCN)NC(=O)[C@H](Cc4ccc(O)cc4)NC(=O)[C@H]4CCCN4C(=O)[C@@H]4CCCN4C1=O)C(=O)N[C@@H](C)C(=O)N[C@@H](CCCCN)C(=O)N1CCC[C@@H]1C(=O)NCC(=O)N[C@@H](Cc1ccccc1)C(=O)N[C@@H](C(C)C)C(=O)N3)C(=O)N[C@@H](Cc1c[nH]cn1)C(=O)N[C@@H](CC(N)=O)C(=O)N[C@@H](Cc1c[nH]cn1)C(=O)N2 (stereo partly drawn)	Streptococcus pneumoniae		BS-444	24 h, 37 °C, 99.9% killing	MBC	2 µM (≈ 8.92 µg/mL)
CC(C)C[C@H](NC(=O)[C@H](CCN)NC(=O)[C@H](CCN)NC(=O)[C@@H](Cc1ccccc1)NC(=O)[C@H](CC(C)C)NC(=O)[C@H](CCN)NC(=O)[C@H](CCN)NC(=O)[C@@H](CCN)NC(=O)CCS)C(N)=O	Acinetobacter calcoaceticus	BHI agar spot plating		24 h, 37 °C	MBC	64 µM (≈ 62.7 µg/mL)
CC(=O)O[C@@H]1C[C@@H](C)O[C@H]2O[C@@H]3C[C@@H]4CC[C@@H]5[C@H](CC[C@]6(C)[C@@H](C7=CC(=O)OC7)CC[C@]56O)[C@@]4(C=O)C[C@H]3O[C@]21O	Schistosoma mansoni	viability, microscopic viability score	adult worms	72 h	IC50	340 nM and 420 nM
CCOC(=O)C1(Cc2ccc(C(F)(F)F)cc2)Oc2cc(F)ccc2N(Cc2ccc(C(F)(F)F)cc2)C1=O (stereo not drawn)	Setaria viridis	fresh weight, greenhouse postemergence		postemergence, 150 g ai/ha, 21 days	inhibition	28 ± 1.99%
CCCCCOc1ccc(-c2ccc3ncnc(Nc4ccc(OCc5cccc(F)c5)c(Cl)c4)c3c2)c(F)c1F	Trypanosoma cruzi	intracellular amastigote growth, β-galactosidase CPRG	3T3, Tulahuen, β-galactosidase-expressing	10 µM, 96 h	inhibition	52%
CC(C)[C@H]1NC(=O)[C@H](Cc2ccc(O)cc2)NC(=O)[C@@H](C(C)C)NC(=O)[C@@H](C)NC(=O)[C@H](CO)NC(=O)[C@@H](Cc2c(-c3ccc(-c4ccc5ccccc5c4)cc3)[nH]c3ccccc23)NC(=O)[C@@H](CO)NC1=O	Mycobacterium marinum				MIC90	30.2 µM
CN(C)c1nc(NCc2ccc(F)c(C(F)(F)F)c2)c(/N=N/c2ccc(Cl)cc2)c(N(C)C)n1	Ostrinia furnacalis	leaf dipping		200 mg/L, 96 h	mortality	93.3 ± 5.8%
O=C1NC2(CC2)COc2ncc(F)cc2[C@H]2COCCN2c2ccn3ncc1c3n2			Sprague-Dawley rat, male, blood	oral, 2.5 mg/kg/day, 4 weeks, end of treatment, subacute toxicity	mean corpuscular volume	63.8 ± 3.5 fL
[O-][N+]1=C(c2ccc(Cl)cc2)C2=NCCCN2c2ccccc21	Clostridioides difficile	microbial growth			MIC90	16 µg/mL
CC(=O)CCC1C(=O)NC(C(C)C)C(=O)NC(Cc2cc(O)cc(F)c2)C(=O)N2CCCC(N2)C(=O)OC(C(C)=CC=CC(=O)N2CCCCO2)CC=CC=CC(O)C(C)C1O (stereo not drawn)	Hepatitis C virus	viral replication	Huh7, Con1 replicon	10% fetal bovine serum	EC50	15 ± 2 nM

For quick reference, copied from above:
Structure (SMILES)	target or system	test	test system	setting	measurement	result
CC(C)C[C@H](NC(=O)[C@H](CCN)NC(=O)[C@H](CCN)NC(=O)[C@@H](Cc1ccccc1)NC(=O)[C@H](CC(C)C)NC(=O)[C@H](CCN)NC(=O)[C@H](CCN)NC(=O)[C@@H](CCN)NC(=O)CCS)C(N)=O	Acinetobacter calcoaceticus	BHI agar spot plating		24 h, 37 °C	MBC	64 µM (≈ 62.7 µg/mL)
